Assay results gathered from unrelated publications.
Numbered parts are unrelated; each lists some results of a single study.

Series 1
Target: Histone acetyltransferase KAT6A, winged helix 2, GST fusion (KAT6A, Homo sapiens, UniProt Q92794, residues 85-181)
Technique: protein binding microarray
Form: double-stranded DNA, one strand shown
Matrix: in vitro
Tested at: not given
Notes: 8-mer, flanks averaged, mean of 2 arrays, mostly near background
Reference: not given
Direction: higher = stronger binding
Endpoint: E-score
Construct (chain): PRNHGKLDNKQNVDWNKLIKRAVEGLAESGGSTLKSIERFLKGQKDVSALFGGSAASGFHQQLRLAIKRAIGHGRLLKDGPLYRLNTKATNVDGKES
GGACCCCC: 0.0484
AAGTTATC: 0.0519
GAAAGTCC: -0.14
ACTTATAA: 0.108
ACGCTGAC: 0.146
CAGTTAGC: -0.0904
GGTTCCCA: 0.0502
ACTACGAG: -0.0966
TGTCCGAA: 0.04
ATATCACG: -0.136
AATATTGT: 0.0428
CTAGTACC: -0.108
AACTCGCG: 0.111
TCCACGGA: 0.217
ACGCAACC: 0.0422
AAACTATC: 0.0155

Series 2
Target: RING finger protein unkempt homolog, zinc fingers 1-6, GST-SBP tag (UNK, Homo sapiens, UniProt Q9C0B0, residues 30-357)
UniProt Q9C0B0, sequence (30-357, looked up): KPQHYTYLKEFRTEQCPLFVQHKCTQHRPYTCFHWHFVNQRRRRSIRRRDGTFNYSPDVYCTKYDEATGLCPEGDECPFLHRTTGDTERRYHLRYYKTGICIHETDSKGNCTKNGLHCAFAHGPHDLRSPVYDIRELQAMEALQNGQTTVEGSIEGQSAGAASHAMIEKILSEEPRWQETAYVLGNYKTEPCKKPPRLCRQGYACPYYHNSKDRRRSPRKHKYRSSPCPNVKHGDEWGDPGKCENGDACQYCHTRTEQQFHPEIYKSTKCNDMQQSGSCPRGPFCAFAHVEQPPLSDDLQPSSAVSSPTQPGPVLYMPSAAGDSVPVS
Technique: RNA Bind-n-Seq
Form: RNA
Matrix: in vitro
Tested at: not given
Notes: RNA with constant flanks, ends assumed
Reference: input RNA pool
Direction: higher = stronger binding
Endpoint: bound/input enrichment
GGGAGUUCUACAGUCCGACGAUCGAUAUUCAUUUGAAUGAAAUGGCUGGAGACAUCUUAGUUUUUCUGACUGGCCAGUUUGAGACCGAGAAGAGUUGCGAGCUGCUCUUUCAGAUGGCGGAGUCUGUUGACUAUGAUUAUGAUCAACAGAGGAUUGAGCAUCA: 0.171 ratio
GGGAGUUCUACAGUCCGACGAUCACUUUAAACCAUUUGACUUUCGCUCCAAAGUUAUGUUGGUAGUAUAGCAAAUUAUGAUGAACCGCUUUAAUUGUAUGUUUAAAAGUCUCAUAUGUUCACAUGCUUAAAUCUGGGUAUCAGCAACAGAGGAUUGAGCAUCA: 1.51 ratio
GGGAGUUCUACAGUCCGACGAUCGCAGAAUACCCUGAUGAGUAUCAUGGCGAGUACCAGGAUGACUACCCCAGAGAUUACCAAUACCGCGACCAAGGCAUUGAUUAUUAGAUCCACACAGAAGGAGCUCAGUAUUUAGUCCUUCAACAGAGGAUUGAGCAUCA: 0.283 ratio
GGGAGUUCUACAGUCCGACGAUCGAUUCCAAGCUAACAAGACUACUACAGGAUUCCCUCGGGGGUAAUAGCCAAACAAUCAUGACCGCAUGUGUCAGCCCUUCAGACAGAGACUUUAUGGAAACGUUAAACACCCUGAAAUACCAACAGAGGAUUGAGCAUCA: 0.331 ratio
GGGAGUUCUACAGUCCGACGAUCUUAAUUAAAGAAACAAAGCUCUCCACUGAGCCAAGUCCAGAGUUCUCUAAUUAUUCAGAAACCGCAAAAUUUGAGAAGUCGGUGCCUGAUCACUGUGAGCUCGUGGAUGAUUCCUCACCCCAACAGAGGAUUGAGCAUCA: 0.146 ratio
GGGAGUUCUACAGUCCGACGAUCGCAGUGGAAUUUUUCAUCAGAGAUAAAUAUGAAAAGAAGAAAUACUACGAUAAAAAUGCCACCGCUAUUACAAAUAAAGAAAAGGAAAAAAAAAAGGAAGAGAAAAAGAGAGAAAAGGAGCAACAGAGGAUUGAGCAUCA: 0.778 ratio
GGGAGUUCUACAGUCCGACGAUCGAAGCCAGCUCUACCGAGGACUCACGUGCUACCAGCAUCCCUGGGAGCCCUUUCAACCUAUUCCGUGACCUUGACAAAGCAGAUGACCUGCCCAGUCACCAAAAAAUAUUUGAUCUAAUGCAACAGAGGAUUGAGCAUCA: 0.212 ratio
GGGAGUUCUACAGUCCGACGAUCCCCACGCCCUCCCUCUCCCAGGCCCGAGAUGUGACCCACCAGUGCCUUCUGUCUGCUCGUCCGCUUUAAUCAAUCAUGCCCUGCCUUGUCCCUCUCACUCCCCAGCCCCACCCCUAAGUGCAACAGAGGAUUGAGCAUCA: 0.991 ratio

Series 3
Target: Fragile X messenger ribonucleoprotein 1, C-terminal low-complexity region (Fmr1, Mus musculus, UniProt P35922)
Technique: RNA Bind-n-Seq
Form: RNA
Matrix: in vitro
Tested at: 200 nM
Notes: whole 134-nt RNA, ends assumed
Together with: 150 mM KCl
Reference: input library
Direction: higher = stronger binding
Endpoint: log2 enrichment
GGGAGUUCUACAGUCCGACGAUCAGUCCUGUGCUACACAUCGUAUGUACCGAAUCGGAAAAAAAGGUUUGGAAAAAAAGGAAAGUAUUAUGUUACGCCGUUCGGAUCUGCACUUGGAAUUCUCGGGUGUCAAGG: -1.49
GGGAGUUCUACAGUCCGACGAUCCUCAAGUCCUGUGCUACACAUCGUAUGUACCGAAUCGGCCCGGGCCCGGCCCGGAAAGUAUUAUGUUACGCCGUUCGGAUCUGCACUUCCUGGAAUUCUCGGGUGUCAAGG: -0.0261
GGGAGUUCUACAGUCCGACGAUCUCAAGUCCUGUGCUACACAUCGUAUGUACCGAAUCGGGGUUGGUUGGGUUGGGGAAAGUAUUAUGUUACGCCGUUCGGAUCUGCACUUCCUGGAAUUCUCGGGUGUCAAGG: 0.919
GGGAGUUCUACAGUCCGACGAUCUGGCCCUGGUGGCAUGCGGUGAGGAAGAGGUGGCCUCAUGGAUCGUGGUGGUCCCGGUGGAAUGUUCAGAGGUGGCCGUGGUGGAGACAGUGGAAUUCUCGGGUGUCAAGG: 0.183
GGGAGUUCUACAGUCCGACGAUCAAGUCCUGUGCUACACAUCGUAUGUACCGAAUCGGGUUUUGGUUUUGGGUUUUGGGGAAAGUAUUAUGUUACGCCGUUCGGAUCUGCACUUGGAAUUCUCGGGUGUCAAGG: -0.135
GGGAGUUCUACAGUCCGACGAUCCAAGUCCUGUGCUACACAUCGUAUGUACCGAAUCGGGAGGGUUUUUUUGGGUGGGAAAGUAUUAUGUUACGCCGUUCGGAUCUGCACUUCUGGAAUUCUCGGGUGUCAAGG: 0.703
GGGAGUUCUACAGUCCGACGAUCUCAAGUCCUGUGCUACACAUCGUAUGUACCGAAUCGGAAGGGAAGGGGAAGGGGAAAGUAUUAUGUUACGCCGUUCGGAUCUGCACUUCCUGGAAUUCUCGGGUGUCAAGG: 0.711
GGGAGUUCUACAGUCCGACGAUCUGGGAGGUGGAUUUUGUUUAUUUUUUUAGCUCAUUUCCAGGGGUGGGAAUUUUUUUUUAAUAUGUGUCAUAAAUAAAGUUGUUUUUGAAAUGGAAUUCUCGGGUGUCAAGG: 0.267
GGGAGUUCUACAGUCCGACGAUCUGUGUGUUAUAUAUUUAUUUUUAAUUGCAGAUGACAGGAUUGGACAUUGAGAAGGACCAGAUUAUUGAGAUGGCCUGUCUGAUAACUGACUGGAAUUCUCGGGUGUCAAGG: -2.06
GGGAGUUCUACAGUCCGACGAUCUGUGCUACACAUCGUAUGUACCGAAUCGGGGAAAAAAAGGGGAAAAAAAGGGGAAAAAGGGGAAAGUAUUAUGUUACGCCGUUCGGAUCUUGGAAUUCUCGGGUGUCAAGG: -0.142

Series 4
Target: Centromere-binding protein 1, full length, His-tagged (CBF1, Saccharomyces cerevisiae, UniProt P17106, residues 1-351)
UniProt P17106, sequence (whole entry, looked up): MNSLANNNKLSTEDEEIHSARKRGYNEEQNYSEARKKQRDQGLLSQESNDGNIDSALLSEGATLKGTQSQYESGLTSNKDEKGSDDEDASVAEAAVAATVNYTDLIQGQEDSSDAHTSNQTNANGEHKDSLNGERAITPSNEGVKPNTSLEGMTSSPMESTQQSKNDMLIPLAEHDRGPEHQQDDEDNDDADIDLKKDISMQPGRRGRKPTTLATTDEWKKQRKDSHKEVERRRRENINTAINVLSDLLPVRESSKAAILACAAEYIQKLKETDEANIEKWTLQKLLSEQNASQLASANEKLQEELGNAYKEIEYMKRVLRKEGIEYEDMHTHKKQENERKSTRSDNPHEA
Technique: competition protein-binding microarray
Form: double-stranded DNA, one strand shown
Matrix: in vitro
Tested at: 2 µM
Notes: whole 60-bp probe, lowest competitor level
Together with: Pho4 competitor, 0.05 µM
Direction: higher = stronger binding
Endpoint: fluorescence intensity
GCGCCTTTACGCCTTCACGTGGAACAAGACACTTTAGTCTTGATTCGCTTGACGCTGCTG: 622 a.u.
TCAAGGCGGACATACTTCGTGATGGAAGCTCATGTTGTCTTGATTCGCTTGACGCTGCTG: 74 a.u.
TGCGCAACAACTTTTCACGTGAAATTATGTCTAGAAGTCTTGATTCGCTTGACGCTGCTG: 1120 a.u.
GACGGGCGCTGGGGACTCGTGCCGATCCGGGACTGGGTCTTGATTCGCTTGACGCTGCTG: 61.8 a.u.
AAAGCGGTAATTTGCCCGGTGGGTGCAGATATCTATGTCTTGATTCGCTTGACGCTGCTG: 65.3 a.u.
GTTATAAGTGCTTTTCTCGTGCATCCCTTGGCACTTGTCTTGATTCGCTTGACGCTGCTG: 81.9 a.u.
ATTAAGTCTCTTCATCCCGTGTACTATTACCCGACAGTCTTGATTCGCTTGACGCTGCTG: 122 a.u.
ATGTTCCACAATACAAGCGTGACTCGAGACGTAAGGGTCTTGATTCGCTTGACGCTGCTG: 266 a.u.
GAGTTTGGAATCAAACTCGTGGCCGACCTATGGATCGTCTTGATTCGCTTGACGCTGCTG: 70.7 a.u.
TTCTGGACGTATCTGCACATGTGTGTTGCTTTTGTTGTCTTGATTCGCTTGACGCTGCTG: 140 a.u.
GGCTATTATGCGATCATCGTGCAAAAATCGGTACTCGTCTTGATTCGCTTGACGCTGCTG: 101 a.u.
CCTGCCCAGACCCTCCACGTGGGCACAGCAGCCAGGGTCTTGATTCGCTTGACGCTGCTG: 548 a.u.
CGGGGTTAAGTTTGGCATGTGGGTGGCTTGCAGCAGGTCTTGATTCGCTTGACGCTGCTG: 84.7 a.u.
CTTTCCCGATCTTGATACGTGGGTGTAGCACATTTGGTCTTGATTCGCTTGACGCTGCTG: 64.6 a.u.
GTTCTGGGTATTTCGCATGTGGATGGGTTCAGTGTCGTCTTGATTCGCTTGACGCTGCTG: 86.5 a.u.
CTAACGAAGGTTTTTCACGTGGCATACAAGCCAAGTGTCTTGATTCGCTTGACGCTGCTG: 921 a.u.
CGTCCTAGCGATTGAGGGGTGGGTGCCATGAGGAAGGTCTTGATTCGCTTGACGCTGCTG: 80.8 a.u.

Excerpt of the above (series 1):
ACGCTGAC: 0.146
CAGTTAGC: -0.0904
GGTTCCCA: 0.0502
ACTACGAG: -0.0966
TGTCCGAA: 0.04
